Earlier results that unrelated publications cite.
Each numbered part shows a few of the values that one paper quotes. In brackets after ≈: the same amount, converted by molar mass.
UniProt Q9Y6M4, sequence (whole entry, looked up): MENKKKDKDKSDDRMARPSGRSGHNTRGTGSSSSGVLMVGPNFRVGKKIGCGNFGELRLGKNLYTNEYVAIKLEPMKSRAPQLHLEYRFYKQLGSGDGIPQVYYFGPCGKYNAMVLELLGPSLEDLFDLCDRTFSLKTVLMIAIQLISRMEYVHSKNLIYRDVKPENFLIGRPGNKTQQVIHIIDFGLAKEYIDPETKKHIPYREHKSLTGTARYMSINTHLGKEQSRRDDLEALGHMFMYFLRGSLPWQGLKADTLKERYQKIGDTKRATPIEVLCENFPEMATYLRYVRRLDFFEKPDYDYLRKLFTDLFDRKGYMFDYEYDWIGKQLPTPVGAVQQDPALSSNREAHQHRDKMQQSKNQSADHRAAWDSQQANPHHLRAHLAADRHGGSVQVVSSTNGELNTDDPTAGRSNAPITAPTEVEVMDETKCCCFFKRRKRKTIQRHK
UniProt P24462, sequence (whole entry, looked up): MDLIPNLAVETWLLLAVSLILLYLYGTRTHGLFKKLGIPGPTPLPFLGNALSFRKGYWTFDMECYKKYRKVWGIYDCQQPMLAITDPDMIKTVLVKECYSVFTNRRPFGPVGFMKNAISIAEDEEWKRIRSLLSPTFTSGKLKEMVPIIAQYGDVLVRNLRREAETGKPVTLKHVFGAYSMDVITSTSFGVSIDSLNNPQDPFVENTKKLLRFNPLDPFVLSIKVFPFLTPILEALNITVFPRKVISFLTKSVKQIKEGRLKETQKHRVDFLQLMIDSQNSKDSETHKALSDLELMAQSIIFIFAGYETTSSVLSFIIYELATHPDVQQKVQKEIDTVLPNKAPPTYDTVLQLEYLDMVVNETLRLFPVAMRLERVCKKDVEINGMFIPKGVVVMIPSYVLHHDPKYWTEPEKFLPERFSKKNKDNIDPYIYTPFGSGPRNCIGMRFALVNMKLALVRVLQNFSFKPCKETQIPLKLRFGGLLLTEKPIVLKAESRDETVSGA

Set 1
Organism: Cryptosporidium parvum
Method: high-throughput screen
Tested at: concentration not given
Structure (SMILES) | activity
NS(=O)(=O)c1cc2c(cc1C(F)(F)F)NC(Cc1ccccc1)NS2(=O)=O (centres unmarked) | inactive
CC1(C)S[C@@H]2[C@H](/N=C/N3CCCCCC3)C(=O)N2[C@H]1C(=O)O | inactive
O=C(CCNNC(=O)c1ccncc1)NCc1ccccc1 | inactive
OCc1cc(C(O)CNCCCCCCOCCCCc2ccccc2)ccc1O (centres unmarked) | inactive
CC[C@H]1OC(=O)[C@H](C)C(=O)[C@H](C)[C@@H](O[C@@H]2O[C@H](C)C[C@H](N(C)C)[C@H]2O)[C@](C)(OC)C[C@@H](C)C(=O)[C@H](C)[C@H]2N(CCCCn3cnc(-c4cccnc4)c3)C(=O)O[C@]12C | inactive
O=c1[nH]c(=O)n(C2CCCO2)cc1F (centres unmarked) | inactive
NC(=O)N1c2ccccc2CC(=O)c2ccccc21 | inactive
Cc1ccc(-c2cc(C(F)(F)F)nn2-c2ccc(S(N)(=O)=O)cc2)cc1 | inactive
Cc1ccc(O)c([C@H](CCN(C(C)C)C(C)C)c2ccccc2)c1 | inactive
O=C(C1CCCCC1)N1CC(=O)N2CCc3ccccc3C2C1 (centres unmarked) | inactive
CN(C)[C@@H]1C(O)=C(C(=O)NCN2CCCC2)C(=O)[C@@]2(O)C(O)=C3C(=O)c4c(O)cccc4[C@@](C)(O)[C@H]3C[C@@H]12 | inactive
CN(C)CCOC(C)(c1ccccc1)c1ccccn1 (centres unmarked) | inactive
C[C@H](CCC(=O)O)[C@H]1CC[C@H]2[C@@H]3C(=O)C[C@@H]4CC(=O)CC[C@]4(C)[C@H]3CC(=O)[C@]12C | inactive
C[C@@H]1CN(CCCn2c3ccccc3c3ccccc32)C[C@H](C)N1 | inactive
CCC[C@@H]1C[C@@H](C(=O)N[C@@H]([C@H]2O[C@H](SC)[C@H](O)[C@@H](O)[C@H]2O)[C@@H](C)O)N(C)C1 | inactive
CC(O)CO.N[C@@H](C(=O)N[C@@H]1C(=O)N2C(C(=O)O)=C(CSc3cn[nH]n3)CS[C@H]12)c1ccc(O)cc1 | inactive
Oc1ccc(C2CNCCc3c2cc(O)c(O)c3Cl)cc1 (centres unmarked) | inactive
CCC(=O)O[C@]1(C(=O)SCF)[C@H](C)C[C@H]2[C@@H]3C[C@H](F)C4=CC(=O)C=C[C@]4(C)[C@@]3(F)[C@@H](O)C[C@@]21C | inactive
CCOC(=O)c1ccc(OC(=O)CCCCCN=C(N)N)cc1.CS(=O)(=O)O | inactive
CC(C)(O)c1ccccc1CC[C@@H](SCC1(CC(=O)O)CC1)c1cccc(/C=C/c2ccc3ccc(Cl)cc3n2)c1 | inactive
CCN(CC)CC#CCOC(=O)C(O)(c1ccccc1)C1CCCCC1 (centres unmarked) | inactive
CC(C)C[C@H](NC(=O)[C@@H](O)[C@H](N)Cc1ccccc1)C(=O)O | inactive
C/C(=C\C(=O)OCCCCCCCCC(=O)O)C[C@@H]1OC[C@H](C[C@@H]2O[C@H]2[C@@H](C)[C@H](C)O)[C@@H](O)[C@H]1O | inactive
CC(C)NCC(O)c1cc(O)cc(O)c1 (centres unmarked) | inactive
NC(=O)c1ncn([C@@H]2O[C@H](CO)[C@@H](O)[C@H]2O)n1 | inactive

Mixed results
PTGS2: Prostaglandin G/H synthase 2 (PTGS2, Homo sapiens, UniProt P35354)
UniProt P35354, sequence (whole entry, looked up): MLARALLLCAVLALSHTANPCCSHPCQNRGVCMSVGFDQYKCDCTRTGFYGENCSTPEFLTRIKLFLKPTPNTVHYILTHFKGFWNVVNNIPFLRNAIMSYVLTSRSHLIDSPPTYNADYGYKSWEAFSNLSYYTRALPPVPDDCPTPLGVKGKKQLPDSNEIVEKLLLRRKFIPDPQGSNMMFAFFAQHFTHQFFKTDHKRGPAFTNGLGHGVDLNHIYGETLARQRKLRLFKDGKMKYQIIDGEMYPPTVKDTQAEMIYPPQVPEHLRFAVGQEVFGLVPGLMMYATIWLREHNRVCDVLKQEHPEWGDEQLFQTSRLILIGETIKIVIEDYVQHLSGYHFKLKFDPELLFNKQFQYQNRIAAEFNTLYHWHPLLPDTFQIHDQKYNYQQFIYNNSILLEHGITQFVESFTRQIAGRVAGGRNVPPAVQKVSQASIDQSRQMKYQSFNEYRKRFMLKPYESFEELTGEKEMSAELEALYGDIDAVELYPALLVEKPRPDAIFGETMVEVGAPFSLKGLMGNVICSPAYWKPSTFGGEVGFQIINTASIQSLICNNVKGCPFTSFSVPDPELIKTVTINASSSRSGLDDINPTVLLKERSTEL
SMILES | target or system | test | system | setting | scale | endpoint | value
CO[C@H]1/C=C/O[C@@]2(C)Oc3c(C)c(O)c4c(O)c(c(/C=N/N5CCN(C)CC5)c(O)c4c3C2=O)NC(=O)/C(C)=C\C=C\[C@H](C)[C@H](O)[C@@H](C)[C@@H](O)[C@@H](C)[C@H](OC(C)=O)[C@@H]1C | OATP1B1 and OATP1B3 |  |  |  | relative to: IC50 over clinical Cmax | IC50 to Cmax ratio | > 10 fold
CC(C)=CCc1cc2c(cc1O)O[C@H](c1ccc(O)cc1)CC2=O | estrogen receptor alpha | agonist |  |  |  | EC50 | 320 nM
CC(C)(O)c1cnc2ncc(-c3ccc(F)c(-c4c(F)cccc4C#N)c3)n2n1 | GABAA receptor benzodiazepine site | receptor occupancy | rat | oral |  | Occ50 | 0.09 mg/kg
O=C(O)CN(CC(=O)O)[C@H]1CCCC[C@@H]1N(CC(=O)O)Cc1ccccn1 |  |  |  | 37 °C, added: 25 equiv Zn2+ |  | transmetallation rate constant | 0.000676 s⁻¹
CCOc1ccc(S(=O)(=O)Nc2ccc(Cl)cc2C#Cc2cnc(C(=O)O)cc2OC)c2ncccc12 | human AVPR1A |  |  |  |  | IC50 | 7100 nM
O=C(O)CN1Cc2cccc(n2)CN(CC(=O)O)Cc2cccc(n2)C1 |  | protonation constant | 0.1 M KCl |  |  | log KHL | 9.57
CCC(CC)COC(=O)[C@H](C)N[P@](=O)(OC[C@H]1O[C@@](C#N)(c2ccc3c(N)ncnn23)[C@H](O)[C@@H]1O)Oc1ccccc1 | Vero | cytotoxicity |  |  |  | CC50 | > 100000 nM
CC(=O)Nc1ccc(O)cc1 |  |  | octanol/water |  |  | logP | 0.31
N#Cc1ccc(Nc2ccc3[nH]c(=O)[nH]c3c2)c(Cl)c1 | BCL6 (human) | biochemical |  |  |  | IC50 | 110000 nM
Cc1nc(-c2ccc(OCC(C)C)c(C#N)c2)sc1C(=O)O |  |  | healthy adult human |  |  | half-life | 5 to 8 h
Cc1c2cc(I)ccc2nc(-c2ccc(Cl)cc2)[n+]1[O-] | PTGS2 | inhibitor |  |  |  | IC50 | 6050 nM
C#Cc1cccc(Nc2ncnc3cc(OCCOC)c(OCCOC)cc23)c1 |  |  | human | intravenous, 150 mg |  | Cmax | 1960 ng/mL
COc1ccc(-c2ccn(CC[C@](C)(C(=O)NO)S(C)(=O)=O)c(=O)c2)c(F)c1 | Pseudomonas aeruginosa |  | PAO1 |  |  | MIC | 0.6 µM (≈ 0.247 µg/mL)
O=C(O)C[C@H](O)C[C@H](O)/C=C/c1c(C2CC2)nc2ccccc2c1-c1ccc(F)cc1 |  |  | healthy human volunteers | dose not given, added: rifampicin | relative to: without rifampicin | Cmax increase | 4.36 fold
CCN(CC)CCNC(=O)c1cc(Cl)c(N)cc1OC | dopamine D2 receptor | binding |  |  |  | Ki | 53 nM
Cn1cnc2c(F)c(Nc3ccc(Br)cc3F)c(C(=O)NOCCO)cc21 |  |  | human, plasma total | 30 mg |  | Cmax | 662 nM
CC1CCN(c2ccnc(NCc3cn(C)cn3)n2)CC1 | OGA human | cellular activity |  |  |  | EC50 | 450 nM
CCCN1CC(c2ccc(S(C)(=O)=O)cc2)=C(c2ccc(C)cc2)C1=O | PTGS2 | inhibitor |  |  |  | IC50 | 18 nM
N=C(N)NCCCNC(=O)[C@@H]1CCCCN1C(=O)[C@@H](CC1CCCCC1)NCC(=O)O |  |  | octanol/water |  |  | logP | -0.6
O=c1ccc2ccc(OCCCCN3CCN(c4cccc5sccc45)CC3)cc2[nH]1 | dopamine D2 receptor | binding |  |  |  | Ki | 0.3 nM
Cn1c(Cn2ccc(C(F)(F)F)c(Oc3cc(Cl)cc(C#N)c3)c2=O)n[nH]c1=O |  |  | human, plasma total | 120 mg |  | Cmax | 2710 nM
O=C(NCc1ncc(C(F)(F)F)cc1Cl)c1ccc2c(c1)C1(CCS(=O)(=O)CC1)[C@@H](C1CC1)N2S(=O)(=O)c1ccc(F)cc1 | GNRHR | cellular activity |  |  |  | IC50 | 2400 nM
CO[C@H]1C[C@@H]2CC[C@@H](C)[C@@](O)(O2)C(=O)C(=O)N2CCCC[C@H]2C(=O)O[C@H]([C@H](C)C[C@@H]2CC[C@@H](O)[C@H](OC)C2)CC(=O)[C@H](C)/C=C(\C)[C@@H](O)[C@@H](OC)C(=O)[C@H](C)C[C@H](C)/C=C/C=C/C=C/1C | Cytochrome P450 3A7 (CYP3A7, Homo sapiens, UniProt P24462) |  | enzyme incubation |  |  | fraction unbound in incubation | 0.43
C[C@@H](O)[C@H](NC(=O)c1ccc(C#Cc2ccc(CN3CCOCC3)cc2)cc1)C(=O)NO | Aquifex aeolicus LpxC |  |  |  |  | residence time | > 24 h
Cc1ccc2nc(NC(=O)CSc3nc4c(c(=O)n3-c3ccc(F)cc3)SCC4)sc2c1 | Casein kinase I isoform gamma-3 (CSNK1G3, Homo sapiens, UniProt Q9Y6M4) |  |  | 10 µM |  | inhibition | ~40%

For quick reference, copied from above (set 1):
Structure (SMILES) | activity
OCc1cc(C(O)CNCCCCCCOCCCCc2ccccc2)ccc1O (centres unmarked) | inactive
CC[C@H]1OC(=O)[C@H](C)C(=O)[C@H](C)[C@@H](O[C@@H]2O[C@H](C)C[C@H](N(C)C)[C@H]2O)[C@](C)(OC)C[C@@H](C)C(=O)[C@H](C)[C@H]2N(CCCCn3cnc(-c4cccnc4)c3)C(=O)O[C@]12C | inactive
O=c1[nH]c(=O)n(C2CCCO2)cc1F (centres unmarked) | inactive
NC(=O)N1c2ccccc2CC(=O)c2ccccc21 | inactive
